Assay results gathered from unrelated publications.
Each line is one published result; not all experiments were run side by side.
Cell line: human red blood cells

`CC(C)C[C@H](NC(=O)CN)C(=O)N[C@@H](CCCCN)C(=O)N[C@@H](CCCCN)C(=O)N[C@@H](CC(C)C)C(=O)N[C@@H](CC(C)C)C(=O)N[C@@H](CC(C)C)C(=O)N[C@@H](CC(C)C)C(=O)N[C@@H](CC(C)C)C(=O)N[C@@H](CCCCN)C(=O)N[C@@H](CCCCN)C(=O)N[C@@H](CC(C)C)C(=O)NCC(=O)NCC(=O)NCC(=O)N[C@@H](Cc1ccc(O)cc1)C(=O)N[C@H](C(=O)N[C@@H](CC(C)C)C(=O)N[C@@H](CO)C(=O)N[C@@H](CC(=O)O)C(=O)N[C@@H](CCCNC(=N)N)C(=O)N[C@@H](CO)C(=O)N[C@@H](Cc1c[nH]cn1)C(=O)N[C@@H](CC(N)=O)C(=O)N1CCC[C@H]1C(=O)N[C@@H](Cc1ccccc1)C(=O)N[C@@H](CC(N)=O)C(=O)O)[C@@H](C)O`: “lowest hemolytic concentration” > 256 µg/mL (1 h, 37 °C, 10% hemolysis).
The HC50 of `CC[C@H](C)[C@H](NC(=O)[C@H](Cc1ccccc1)NC(=O)[C@H](Cc1ccccc1)NC(=O)[C@@H](NC(=O)[C@@H](NC(=O)[C@H](CCCCN)NC(=O)[C@H](CCC(N)=O)NC(=O)[C@H](Cc1c[nH]cn1)NC(=O)[C@H](CO)NC(=O)[C@H](CO)NC(=O)[C@@H](NC(=O)[C@@H]1CCCN1C(=O)[C@H](C)NC(=O)[C@H](Cc1ccccc1)NC(=O)[C@H](CCCNC(=N)N)NC(=O)[C@H](CC(C)C)NC(=O)[C@H](Cc1ccccc1)NC(=O)[C@H](CCCCN)NC(=O)[C@H](C)NC(=O)CNC(=O)[C@H](CCCCN)NC(=O)[C@H](CCCNC(=N)N)NC(=O)[C@H](CCCCN)NC(=O)[C@@H](NC(=O)[C@H](Cc1ccccc1)NC(=O)[C@@H](NC(=O)[C@H](CC(=O)O)NC(=O)[C@@H](NC(=O)[C@@H](NC(=O)[C@@H](N)CCCCN)[C@@H](C)CC)[C@@H](C)O)C(C)C)C(C)C)C(C)C)C(C)C)[C@@H](C)O)C(=O)N[C@@H](Cc1c[nH]cn1)C(=O)O` is reported as 3550 µmol/L (hemolysis).
`CC(C)C[C@H](N)C(=O)N[C@@H](Cc1c[nH]c2ccccc12)C(=O)N[C@@H](Cc1c[nH]c2ccccc12)C(=O)N[C@@H](CCCNC(=N)N)C(=O)N[C@@H](Cc1c[nH]c2ccccc12)C(=O)N[C@@H](Cc1c[nH]c2ccccc12)C(=O)N[C@@H](CCCNC(=N)N)C(=O)N[C@@H](Cc1c[nH]c2ccccc12)C(=O)N[C@@H](CCCNC(=N)N)C(=O)O`: “lowest hemolytic concentration” > 256 µg/mL (1 h, 37 °C, 10% hemolysis).
`CC[C@H](C)[C@H](NC(=O)[C@H](CC(C)C)NC(=O)[C@@H](NC(=O)[C@H](CCCCN)NC(=O)[C@H](CCCNC(=N)N)NC(=O)[C@H](CCCCN)NC(=O)[C@H](CC(C)C)NC(=O)[C@H](Cc1ccc(O)cc1)NC(=O)[C@@H](NC(=O)[C@@H](NC(=O)[C@H](Cc1ccccc1)NC(=O)CN)C(C)C)C(C)C)[C@@H](C)O)C(=O)N[C@@H](CCCNC(=N)N)C(=O)N[C@@H](CC(C)C)C(=O)N[C@@H](CC(C)C)C(=O)N[C@@H](Cc1ccccc1)C(=O)N[C@H](C(=O)N[C@@H](CC(N)=O)C(=O)N[C@@H](CCCCN)C(=O)N[C@@H](CCCCN)C(=O)N[C@H](C(=O)N[C@H](C(=O)N[C@H](C(=O)N[C@@H](CCC(=O)O)C(=O)N[C@@H](CCCCN)C(=O)N[C@@H](CC(C)C)C(=O)N[C@@H](CCCNC(=N)N)C(=O)N[C@@H](CS)C(=O)N[C@H](C(=O)N[C@@H](CCCNC(=N)N)C(=O)N1CCC[C@H]1C(=O)N[C@@H](CO)C(=O)N[C@@H](CCCNC(=N)N)C(=O)N1CCC[C@H]1C(=O)N1CCC[C@H]1C(=O)N[C@@H](CCCNC(=N)N)C(=O)NCC(=O)N[C@@H](Cc1ccccc1)C(=O)O)C(C)C)[C@@H](C)CC)[C@@H](C)O)[C@@H](C)O)[C@@H](C)O` gave an HC50 of 72.1 µmol/L (hemolysis).
`CC(=O)N[C@@H](CCCCN)C(=O)N[C@@H](CCCCN)C(=O)N[C@@H](CC(C)C)C(=O)N[C@@H](CC(C)C)C(=O)N[C@@H](CCCCN)C(=O)N[C@@H](CC(C)C)C(=O)N[C@@H](CC(C)C)C(=O)N[C@@H](CCCCN)C(=O)N[C@@H](CCCCN)C(=O)N1CCC[C@H]1C(=O)N[C@@H](C)C(=O)N[C@@H](CCCCN)C(=O)N[C@@H](CC(C)C)C(=O)N[C@@H](CC(C)C)C(=O)N[C@@H](CCCCN)C(N)=O` gave an MHC10 of > 160 µM (haemolysis; 6 h, 37 °C, 5% haematocrit in PBS).
`CC[C@H](C)[C@H](N)C(=O)N1CCC[C@H]1C(=O)N[C@@H](CC(C)C)C(=O)N[C@@H](Cc1ccccc1)C(=O)N[C@@H](CCCNC(=N)N)C(=O)N[C@@H](CCCNC(=N)N)C(=O)N[C@@H](Cc1ccccc1)C(=O)NCC(=O)N[C@@H](CCCNC(=N)N)C(=O)N[C@@H](CCC(N)=O)C(=O)N[C@@H](CCCNC(=N)N)C(=O)N[C@@H](CCCCN)C(=O)N[C@H](C(=O)NCC(=O)NCC(=O)N[C@@H](CCCNC(=N)N)C(=O)NCC(=O)N[C@@H](CCCNC(=N)N)C(=O)N[C@H](C(=O)N[C@H](C(=O)N[C@@H](CO)C(=O)N1CCC[C@H]1C(=O)N[C@@H](Cc1ccc(O)cc1)C(=O)N[C@@H](CCCNC(=N)N)C(=O)N[C@H](C(=O)N1CCC[C@H]1C(=O)N[C@H](C(=O)N[C@@H](CC(C)C)C(=O)N[C@@H](CCCNC(=N)N)C(=O)N[C@@H](CCCNC(=N)N)C(=O)N[C@@H](Cc1c[nH]cn1)C(=O)N[C@@H](CCCNC(=N)N)C(=O)N[C@@H](Cc1ccc(O)cc1)C(=O)N[C@@H](CO)C(=O)N[C@H](C(=O)N[C@@H](Cc1ccccc1)C(=O)N[C@@H](CCCNC(=N)N)C(=O)O)[C@@H](C)CC)C(C)C)[C@@H](C)O)[C@@H](C)CC)[C@@H](C)CC)[C@@H](C)CC` gave an HC50 of 351 µmol/L (hemolysis).
`CCCCCC(=O)N[C@@H](CCCCN)C(=O)N[C@@H](CCCCN)C(=O)N[C@@H](C)C(=O)N[C@@H](CC(C)C)C(=O)N[C@@H](CCCCN)C(=O)N[C@@H](CC(C)C)C(=O)N[C@@H](C)C(=O)N[C@@H](CCCCN)C(=O)N[C@@H](CCCCN)C(=O)N1CCC[C@H]1C(=O)N[C@@H](CC(C)C)C(=O)N[C@@H](CCCCN)C(=O)N[C@@H](CC(C)C)C(=O)N[C@@H](CC(C)C)C(=O)N[C@@H](CCCCN)C(N)=O` has an MHC10 of > 160 µM (haemolysis; 6 h, 37 °C, 5% haematocrit in PBS).
`CC(C)C[C@H](NC(=O)CNC(=O)[C@H](CC(C)C)NC(=O)[C@H](CC(C)C)NC(=O)[C@H](CC(C)C)NC(=O)[C@H](CCCCN)NC(=O)[C@@H](N)CCCCN)C(=O)NCC(=O)N[C@@H](CC(C)C)C(=O)N[C@@H](CC(C)C)C(=O)N[C@@H](CC(C)C)C(=O)N[C@@H](CCCCN)C(=O)N[C@@H](CCCCN)C(=O)O`: “lowest hemolytic concentration” > 256 µg/mL (1 h, 37 °C, 10% hemolysis).
`CC(=O)N[C@@H](CCCCN)C(=O)N[C@@H](CCCCN)C(=O)N[C@@H](CC(C)C)C(=O)N[C@@H](CC(C)C)C(=O)N[C@@H](CCCCN)C(=O)N[C@@H](CC(C)C)C(=O)N[C@@H](CC(C)C)C(=O)N[C@@H](CCCCN)C(=O)N[C@@H](CCCCN)C(=O)N1CCC[C@H]1C(=O)N[C@@H](CC(C)C)C(=O)N[C@@H](CCCCN)C(=O)N[C@@H](CC(C)C)C(=O)N[C@@H](CC(C)C)C(=O)N[C@@H](CCCCN)C(N)=O` has an MHC10 of > 160 µM (haemolysis; 6 h, 37 °C, 5% haematocrit in PBS).
With `CC[C@H](C)[C@H](NC(=O)[C@H](CCCCN)NC(=O)[C@H](CCCCN)NC(=O)[C@H](Cc1ccccc1)NC(=O)[C@@H](NC(=O)[C@@H](NC(=O)[C@H](CCCNC(=N)N)NC(=O)[C@H](Cc1ccccc1)NC(=O)[C@@H](NC(=O)[C@H](CCCCN)NC(=O)[C@H](CCCCN)NC(=O)[C@@H](N)CCSC)[C@@H](C)CC)C(C)C)[C@@H](C)CC)C(=O)N[C@@H](CC(C)C)C(=O)N[C@@H](CCCCN)C(=O)N[C@@H](CCCNC(=N)N)C(=O)N[C@@H](CC(C)C)C(=O)N[C@H](C(=O)N[C@H](C(=O)O)C(C)C)[C@@H](C)CC` the haemolysis was 96.5% (128 µg/mL, 1 h, 37 °C; reference: Triton X-100).

Excerpt of the above:
The HC50 of `CC[C@H](C)[C@H](NC(=O)[C@H](Cc1ccccc1)NC(=O)[C@H](Cc1ccccc1)NC(=O)[C@@H](NC(=O)[C@@H](NC(=O)[C@H](CCCCN)NC(=O)[C@H](CCC(N)=O)NC(=O)[C@H](Cc1c[nH]cn1)NC(=O)[C@H](CO)NC(=O)[C@H](CO)NC(=O)[C@@H](NC(=O)[C@@H]1CCCN1C(=O)[C@H](C)NC(=O)[C@H](Cc1ccccc1)NC(=O)[C@H](CCCNC(=N)N)NC(=O)[C@H](CC(C)C)NC(=O)[C@H](Cc1ccccc1)NC(=O)[C@H](CCCCN)NC(=O)[C@H](C)NC(=O)CNC(=O)[C@H](CCCCN)NC(=O)[C@H](CCCNC(=N)N)NC(=O)[C@H](CCCCN)NC(=O)[C@@H](NC(=O)[C@H](Cc1ccccc1)NC(=O)[C@@H](NC(=O)[C@H](CC(=O)O)NC(=O)[C@@H](NC(=O)[C@@H](NC(=O)[C@@H](N)CCCCN)[C@@H](C)CC)[C@@H](C)O)C(C)C)C(C)C)C(C)C)C(C)C)[C@@H](C)O)C(=O)N[C@@H](Cc1c[nH]cn1)C(=O)O` is reported as 3550 µmol/L (hemolysis).
